# Measured values from different studies.
# Each line is one published result; not all experiments were run side by side. ± marks the error that the study gave.
SMILES,assay,system,setting,how to read,measurement,result
Cc1cc([C@H]2C[C@H]3[C@@H](CF)SC(N)=N[C@@]3(c3ccc(F)cc3F)CO2)on1,item: Aβx-40,"Mus musculus wild-type, cerebrospinal fluid","subcutaneous, 30 mg/kg, 3 h",,Aβ40 level,0.33 ng/mL
N#CCC1CCN(c2nc(Nc3ccc(N4CCC(O)CC4)cc3)c3c(=O)[nH]ncc3n2)CC1,Olink multiplex,"human, serum","80 mg, day 29, unit not given",reference: baseline,GIF level change,1.41
Nc1c(O)cccc1C(=O)O,"binding, MIDAS equilibrium dialysis LC-MS",A2AR-BRIL thermostabilized,concentration not given,reference: no-protein control,log2 fold change,0.0596
C[C@@H](NC(=O)N1C(=O)[C@H](Cc2ccnc(N)c2)[C@H]1C(=O)O)C1CCCCC1,,human,"iv infusion, 1.0 mg/kg/h, 24 h",reference: baseline,time to ACT Emax,96 h
c1ccc(-c2n[nH]cc2-c2ccnc3ccccc23)nc1,"kinase binding, competitor, MIB/MS competition, item: SHA3",Candida albicans cell lysate,10 µM,reference: DMSO,log2 fold change,0.845
N#Cc1ccc2c(c1)[C@H]1CCCN(C(=O)c3ccc4[nH]cnc4c3)[C@H]1C2,item: systolic blood pressure,human,"80 mg once daily, day 28, adjusted mean",reference: placebo,change from baseline,-0.2 mmHg
NC(=O)c1cnc2[nH]ccc2c1N[C@@H]1[C@@H]2CC3C[C@H]1C[C@@](O)(C3)C2,"CD8+ naive T cells, flow cytometry","Caucasian humans, peripheral blood",60 mg single dose,reference: baseline,percent change,-0.63%
O=C(O)CN1Cc2cccc(n2)CN(CC(=O)O)Cc2cccc(n2)C1,HPLC,water,"25 °C, Mn complex dissociation, added: 25 equiv Zn2+",,transmetallation rate constant,0.00068 s⁻¹
CC1(C)OCCn2c1nc1c(N3CCOCC3)nc(-c3cnc(N)nc3)nc12,"RNA sequencing, item: HALLMARK_EPITHELIAL_MESENCHYMAL_TRANSITION",MB002 tumour,concentration not given,"reference: vehicle, direction not given",GSEA enrichment score,0.182
COc1ncc(-c2nc3c(n2C(C)C)[C@H](c2ccc(Cl)cc2)N(c2cc(Cl)cn(C)c2=O)C3=O)c(OC)n1,International Working Group criteria,human acute myeloid leukemia patients,"dose not given, response CRi, all patients",,best overall response,7.7%
O=c1[nH]cnc2c1ncn2[C@H]1C[C@H](O)[C@@H](CO)O1,"binding, MIDAS equilibrium dialysis LC-MS",A2AR-BRIL thermostabilized,concentration not given,reference: no-protein control,log2 fold change,-0.0662
C[C@@H](O)CCOC(=O)C[C@@H](C)O,item: C14:2 acylcarnitine,"human, plasma","60 min, log2-transformed values",,metabolite level,-5.5 ± 0.9 µmol/L
Oc1ccc(Br)cc1C=NCCN1CCOCC1,FRAP,,40 µM,,ferric reducing power,10.3%
CSCCNc1nc(SCCC(F)(F)F)nc2c1ncn2[C@@H]1O[C@H](COP(=O)(O)OP(=O)(O)C(Cl)(Cl)P(=O)(O)O)[C@@H](O)[C@H]1O,light transmittance aggregometry,"human patients, platelet-rich plasma","dose not given, 30 min, added: ADP 5 µM",,inhibition of platelet aggregation,44.2 ± 24.1%
[Cl][Fe]([Cl])[Cl],,,"1.0 mg/mL, 30 min, 25 °C",,DPPH scavenging,57.1%
CC1(C)CCC(CN2CCN(c3ccc(C(=O)NS(=O)(=O)c4ccc(NCC5CCOCC5)c([N+](=O)[O-])c4)c(Oc4cnc5[nH]ccc5c4)c3)CC2)=C(c2ccc(Cl)cc2)C1,cell killing,"primary canine neoplastic T cells, dog 19",24 h,,EC50,50 nM
C[C@H](Oc1ccc(Br)cc1-c1ccon1)C(=O)O,first response latency,"human, tibialis anterior muscle","200 mg, 15 Hz, single ascending dose",,difference from placebo,0.052%
O=C(O)CNC(=O)Cc1ccccc1,,"ventricular cardiomyocytes, C57BL/6 mouse","dose not given, 0.12 s",,sarcomere length,1.71 µm
Cc1cnc(N2CC3(CCOCC3)C2)c(C(=O)Nc2ccc(C(=O)N3CCc4cc(C(=O)Nc5c(C)cccc5F)sc4-c4ccccc43)cc2)c1,,"human, RSV infection, nasal wash","dose not given, ITT-IS population",reference: placebo,inhibition of MCP3 AUC,19%
Cc1n[nH]c2ccc(-c3cc(OC[C@@H](N)Cc4ccccc4)cnc3-c3ccoc3)cc12,"kinase binding, competitor, MIB/MS competition, item: CKA1",Candida albicans cell lysate,100 nM,reference: DMSO,log2 fold change,-0.241
CC(=O)Oc1cc2c(s1)CCN(C(C(=O)C1CC1)c1ccccc1F)C2 (centres unmarked),"platelet aggregation, light transmittance aggregometry","human, platelet-rich plasma","15 min, IPA above 90 %, added: TRAP 5 µM",reference: patients,patients with IPA above threshold,0%
OC(CCN1CCCCC1)(c1ccccc1)C1CC2C=CC1C2 (centres unmarked),resting-state EEG,healthy elderly humans,"oral, 4 mg, eyes open, LS mean",reference: baseline,"EEG power, Beta, change in Fz/Cz",3.8%
OC[C@H]1O[C@H](OCC2O[C@@H](O)[C@H](O)[C@@H](O)[C@@H]2O)[C@H](O)[C@@H](O)[C@H]1O (some centres unmarked),"binding, MIDAS equilibrium dialysis LC-MS",A2AR-BRIL thermostabilized,concentration not given,reference: no-protein control,log2 fold change,-0.073
COc1cc(O)c(CC=C(C)C)c(O)c1C(=O)/C=C/c1ccc(O)cc1,,male Tac:SW conventional mice,"in high-fat diet, dose not given",reference: high-fat diet alone,HOMA-IR,decreased
O=P(O)(O)O[C@@H]1[C@H](O)[C@H](O)[C@@H](OP(=O)(O)O)[C@H](OP(=O)(O)O)[C@H]1O,"binding, MIDAS equilibrium dialysis LC-MS",A2AR-BRIL thermostabilized,concentration not given,reference: no-protein control,log2 fold change,-0.453
COc1cc(Nc2ncc3c(n2)-c2ccc(Cl)cc2C(c2c(F)cccc2OC)=NC3)ccc1C(=O)O,,"female NOD/scid mice, ALL-19 B-precursor ALL xenograft","10.4 mg/kg, 5 days weekly, score scale 0 to 10",direction not given,median response score,8
Nc1ncnc2c1ncn2[C@H]1C[C@H](O)[C@@H](COP(=O)(O)OP(=O)(O)O)O1,"binding, MIDAS equilibrium dialysis LC-MS",A2AR-BRIL thermostabilized,concentration not given,reference: no-protein control,log2 fold change,-0.267
Cc1coc([C@H]2C[C@H]3[C@@H](CF)SC(N)=N[C@@]3(c3ccc(F)cc3F)CO2)n1,item: Aβx-40,"wild-type mouse, brain","subcutaneous, 80 mg/kg, 3 h",,brain Aβ40 level,1.31 ng/g
N#Cc1ccn2c(-c3ccncc3)c(-c3ccc(F)cc3)nc2c1,"kinase binding, competitor, MIB/MS competition, item: ENV7",Candida albicans cell lysate,10 µM,reference: DMSO,log2 fold change,-0.078
Nc1nc(C(F)(F)F)nc2c1nnn2C[C@H]1CN(Cc2nccs2)CCO1,RT-qPCR,"Ocy454, mouse",1 µM,reference: 100 nM,Wnt4 mRNA level,increased
CCOCc1nc(O)c(-c2nnc(Cc3ccc(Cl)cn3)o2)c(O)c1-c1c(OC)cccc1OC,,instrumented anaesthetised rat,"intravenous infusion, 1 µg/kg/min for 15 min, 15 min",reference: baseline,SV change,6 ± 0.6%
CCCCCN1C[C@H](O)[C@@H](O)[C@H](O)[C@@H]1CO,"RNA sequencing, item: Hallmark interferon gamma genes","Hexb-/- mouse, hippocampus",300 mg/kg/day,direction not given,genomic disease score,0.47
CN(C)C(=O)Oc1cccc([N+](C)(C)C)c1,neuromuscular block reversal,rat,"dose not given, 21 (unit not given), added: cisatracurium",reference: T1 twitch,train-of-four ratio,97.4
Cc1noc(C)c1-c1cc(C(O)(c2ccccn2)c2ccccn2)c2nc(C3CC3)[nH]c2c1,item: HEXIM1 expression,"human, peripheral blood","4 mg, day 1, 1604 study",,maximum induction,3%
N#Cc1ccc2c(c1)[C@H]1CCCN(C(=O)c3ccc4[nH]cnc4c3)[C@H]1C2,,"T2DM patients with overweight or obesity, plasma","oral, 160 mg, day 15 (360 h), multiple dosing, mean",,fasting plasma glucose,148 mg/dL
Cc1ccc2c(c1)C(=O)[C@]1(O)CCN(c3ccc4nc(C)ccc4c3)C1=N2.Cl,,"mouse, Trp53-/- tumour, tumour H&E sections","intraperitoneal, 10 mg/kg daily, 336 h",,nuclear area increase,53%
CC(C)NCC(O)c1ccc(O)c(O)c1 (centres unmarked),,"ventricular cardiomyocytes, C57BL/6 mouse","dose not given, 0.664 s",,sarcomere length,1.72 µm
NCC(=O)O,"binding, MIDAS equilibrium dialysis LC-MS",A2AR-BRIL thermostabilized,concentration not given,reference: no-protein control,log2 fold change,-0.326
CCO[C@H]1CCN(Cc2c(OC)cc(C)c3[nH]ccc23)[C@H](c2ccc(C(=O)O)cc2)C1,,"PNH patients, blood","oral, 25 mg then 100 mg, week 2, mean absolute change",reference: baseline,PNH RBC clone size,20.9%
O=C(Nc1c(Cl)cncc1Cl)c1ccc(OC(F)F)c(OCC2CC2)c1,,"mouse, human PBMC GvHD model, plasma","1 mg/kg once daily, unit not given",reference: vehicle,plasma TNF-alpha difference,0.298
C=CCn1c(=O)c2cnc(Nc3ccc(N4CCN(C)CC4)cc3)nc2n1-c1ccc2c(n1)[C@@](O)(CC)CC2,immunohistochemistry,"mouse, A-427 xenograft, tumour","20 to 80 mg/kg once daily, 3 days",reference: vehicle,γH2AX level,increased
N#Cc1ccc2c(-c3ccncc3)c(-c3ccc(F)cc3)nn2c1,"kinase binding, competitor, MIB/MS competition, item: GIN4",Candida albicans cell lysate,1 µM,reference: DMSO,log2 fold change,-0.0218
Cn1cc([C@H]2C[C@H]3CSC(N)=N[C@@]3(c3ccc(F)cc3F)CO2)cn1,item: Aβx-40,"wild-type mouse, brain","subcutaneous, 50 mg/kg, 6 h",,brain Aβ40 level,0.99 ng/g
Cc1cn(-c2ccc3n(c2=O)CCN([C@@H](C)[C@@H]2CC[C@H](c4cc(F)c(Cl)cc4C(F)(F)F)O2)C3=O)cn1,item: amyloid beta 40,"human, non-elderly, cerebrospinal fluid","200 mg once daily, 14 days, sampled 336 h",reference: placebo,change from baseline,-42.4%
C[C@H]1C[C@H]2CSC(N)=N[C@@]2(c2nc(NC(=O)c3ccc(OC(F)F)cn3)cs2)CO1,item: Aβ1-40,"healthy adults, plasma","50 mg once daily, day 14",reference: placebo,percent change from baseline,-86.2%
OCC(O)c1ccc(O)c(O)c1 (racemic),"binding, MIDAS equilibrium dialysis LC-MS",A2AR-BRIL thermostabilized,concentration not given,reference: no-protein control,log2 fold change,0.114
O=P(O)(O)C(Cl)(Cl)P(=O)(O)O,immunostaining,"mouse, sham-operated, meninges","dose not given, day 1",reference: total area,GFAP-positive area,3.35%
Cc1cc([C@H]2C[C@H]3[C@@H](C)SC(N)=N[C@@]3(c3ccc(F)cc3F)CO2)on1,item: Aβx-40,"wild-type mouse, brain","subcutaneous, 50 mg/kg, 1 h",,brain Aβ40 level,1.73 ng/g
Cc1ncc(CO)c(C=O)c1O,"binding, MIDAS equilibrium dialysis LC-MS",A2AR-BRIL thermostabilized,concentration not given,reference: no-protein control,log2 fold change,0.08
CC1(C)C(/C=C/C=C/C=C/C=C2\N(CCCCS(=O)(=O)O)c3ccc4ccccc4c3C2(C)C)=[N+](CCCCS(=O)(=O)[O-])c2ccc3ccccc3c21,,mouse MMTV-PyMT mammary tumour model,"dose not given, 15 days post-surgery, after image-guided surgery",,recurrent tumour volume,66.7 mm³

# Some of these lines once more:
SMILES,assay,system,setting,how to read,measurement,result
[Cl][Fe]([Cl])[Cl],,,"1.0 mg/mL, 30 min, 25 °C",,DPPH scavenging,57.1%
CC1(C)CCC(CN2CCN(c3ccc(C(=O)NS(=O)(=O)c4ccc(NCC5CCOCC5)c([N+](=O)[O-])c4)c(Oc4cnc5[nH]ccc5c4)c3)CC2)=C(c2ccc(Cl)cc2)C1,cell killing,"primary canine neoplastic T cells, dog 19",24 h,,EC50,50 nM
C[C@H](Oc1ccc(Br)cc1-c1ccon1)C(=O)O,first response latency,"human, tibialis anterior muscle","200 mg, 15 Hz, single ascending dose",,difference from placebo,0.052%
O=C(O)CNC(=O)Cc1ccccc1,,"ventricular cardiomyocytes, C57BL/6 mouse","dose not given, 0.12 s",,sarcomere length,1.71 µm
Cc1cnc(N2CC3(CCOCC3)C2)c(C(=O)Nc2ccc(C(=O)N3CCc4cc(C(=O)Nc5c(C)cccc5F)sc4-c4ccccc43)cc2)c1,,"human, RSV infection, nasal wash","dose not given, ITT-IS population",reference: placebo,inhibition of MCP3 AUC,19%
